Results gathered from unrelated publications.
A part holds a random share of what one study measured.

Study 1 — technique: RNA Bind-n-Seq; form: RNA; sample: in vitro; concentration: 200 nM; setting: whole 134-nt RNA, ends assumed; added: 150 mM LiCl; relative to: input library; direction: higher = stronger binding; library: 7-deaza-guanosine replaces G
Target: Fragile X messenger ribonucleoprotein 1, C-terminal low-complexity region (Fmr1, Mus musculus, UniProt P35922)
Shared flanks, not repeated: GGGAGUUCUACAGUCCGACGAUC … UGGAAUUCUCGGGUGUCAAGG
Sequence | log2 enrichment
CACAGACAACACGCACCCACACAGACACAGAGGGAAGGGGUUGGGAUGGGGACAGGGUGCACAGCAGGGCGGGGUAGGAACCCAGCCCCU | 1.53
UUGUCUACAGAACUAGACAGUACGGAUGGUGCCAAAGUUUUUAGUAAACAACCAGGAAGAAUCCAAAGAGUAGCAAGAGGAUCGGGUGUA | -2.46
UGGGAGGUGGAUUUUGUUUAUUUUUUUAGCUCAUUUCCAGGGGUGGGAAUAUUUUUUUAAUAUGUGUCAUGAAUAAAGUUGUUUUUGAAA | 0.184
UCCUCAAGUCCUGUGCUACACAUCGUAUGUACCGAAUCGGGUGGUGGGUGGAAAGUAUUAUGUUACGCCGUUCGGAUCUGCACUUCCAGC | 0.176
CUGUGCUACACAUCGUAUGUACCGAAUCGGAAAAAAAGGGGAAAAAAAGGGGAAAAAAAGGAAAGUAUUAUGUUACGCCGUUCGGAUCUG | -0.0218

Study 2 — technique: RNA Bind-n-Seq; form: RNA; sample: in vitro; concentration: 365 nM; relative to: no-protein control; direction: higher = stronger binding
Target: RNA binding protein fox-1 homolog 2, RRM domain, GST-SBP tag (RBFOX2, Homo sapiens, UniProt O43251-10, residues 100-194)
Setting: natural RNA segment, single round, ends assumed
Shared flanks, not repeated: GGGAGUUCUACAGUCCGACGAUC … UGGAAUUCUCGGGUGCCAA
Sequence | RBNS enrichment (R)
CAGCCACCUUCCUCACAGGGACUAGGAGGCUCAGUCCCCAACGGCUGGCAAGACUCAGGGUCCUCAGUGGACAUGGUGUGGGUGACAUCAGAAGGGUGCCACAUCAGUCC | 0.427
UUUUACUUUUAUCAUCAAACAUCUGGUGUUUUAAUUUACUUUUUUUUUUAAUGCUGUUCCUCAUGUACAUGACUUAAAAAUGUCACCAAGGCAUCAAAAUGAGUUGACAG | 0.454
UAAAAUAAAAUGAAAGAAACUUGCUUCCCUUAGCCUUUGUUCUAGAAAAUAAACUUGUGCACUUUGACCUCUGUCCCCGAGAUGUCACUCCUGUUCCUCCCCACCUGGUA | 0.652
UCUGUAUAUUUGAACUGCUCCUUAUGUGACAAAAUAGGUAGCUCUUGGGCUCAUGUCCUGGGUUUUGGCUCUUUAAUGAUUACUCCAGGCCAGCAUUUAGUCGUUUGAGA | 0.536
AUGUCCAGACCCACAGCAGAGUGAAGUCUGAGUGCUCCUAACAACCCACAGCAGCCACGCUAGAAGCUUAAUGGAUUCGGAGCCCAUGAGAGAAAGAACACAGGCUUCCU | 0.743

Study 3 — technique: protein binding microarray; form: double-stranded DNA, one strand shown; sample: in vitro; concentration: not given; relative to: not given; direction: higher = stronger binding
Target: Histone acetyltransferase KAT6A, both winged helices, GST fusion (KAT6A, Homo sapiens, UniProt Q92794, residues 1-181)
Setting: 8-mer, flanks averaged, mean of 2 arrays, mostly near background
Residues (chain): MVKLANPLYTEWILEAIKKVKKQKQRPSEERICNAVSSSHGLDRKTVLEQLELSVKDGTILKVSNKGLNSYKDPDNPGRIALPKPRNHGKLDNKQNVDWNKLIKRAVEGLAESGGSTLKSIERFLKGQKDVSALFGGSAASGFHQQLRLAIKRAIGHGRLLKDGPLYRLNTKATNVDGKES
Sequence | E-score
GCGCAGGA | 0.153
ATCCTGTG | -0.0491
GAGGGAGA | -0.301
ATCGGCAT | 0.188

Further values, each from its own experiment
Substance | target | assay | system | conditions | scale | quantity | value
PhoQ, residues 284 288 289 292 302 303 GTAMQF | PhoP, residues 12 14 15 18 19 VHSCL (Escherichia coli, UniProt P23836) | Sort-seq, item: YFP reporter | E. coli | PhoQ-PhoP variant library, added: 10 µM Mg2+ | relative to: high Mg2+ state, higher = stronger signaling | fold induction | 2.33
